# Published values gathered from unrelated publications.
# Values joined by “and” are separate records of one study, mostly repeats; a detail may differ.
Molecule,tested on,test,system,setting,scale,quantity,value
Cc1ncsc1-c1ccc(C(CO)NC(=O)C2CC(O)CN2C(=O)C(C(C)C)n2cc(-c3ccc(COc4c(-c5c(C)c(F)cc6[nH]ncc56)c(C5CC5)cc5c(N6CC7CC6CN7)nc(OC6CCOCC6)nc45)cc3)nn2)cc1 (centres unmarked),,,"male Balb/c nu/nu mouse, PK-59 xenograft, pancreas","intravenous, 30 mg/kg, 24 h",,concentration,311 ng/g and 303 ng/g
Cc1nc(C)c(C=[N+]([O-])C(C)(C)C)nc1C,,footprint test,MPTP-induced Parkinson's disease mouse model,10 mg/kg,,stride length,5.39 cm and 5.61 cm and 5.93 cm and 6.81 cm and 7.3 cm and 6.45 cm and 7.65 cm and 6.23 cm
Ic1ccc(Nc2nc(NCCN3CCOCC3)nc(N3CC4CCC(C3)O4)n2)cc1,Gaucher fibroblasts L444P/L444P,"4-MUG hydrolysis, cell lysate",,0.1 µM,reference: DMSO,GCase activity,111% and 110% and 107% and 103% and 105%
Cc1ncsc1-c1ccc(C(CO)NC(=O)C2CC(O)CN2C(=O)C(NC(=O)c2ccc(COc3c(-c4c(C)c(F)cc5[nH]ncc45)c(C4CC4)cc4c(N5CC6CC5CN6)nc(OC5CCOCC5)nc34)cc2)C(C)C)cc1 (centres unmarked),"GTPase KRas, GDP-bound (KRAS, Homo sapiens, UniProt P01116, G12D)","SPR, multi-cycle",immobilized KRAS G12D,"binary, geometric mean",,koff,0.00634 s⁻¹
AGGGAGGGAGGGAGGGAAAAAAA (RNA; intramolecular G-quadruplex),Fmr1 fragment (Mus musculus),fluorescence polarization,folded RNA,KCl 150 mM,,binding,binds

# For quick reference, copied from above:
Molecule,tested on,test,system,setting,scale,quantity,value
AGGGAGGGAGGGAGGGAAAAAAA (RNA; intramolecular G-quadruplex),Fmr1 fragment (Mus musculus),fluorescence polarization,folded RNA,KCl 150 mM,,binding,binds
